Results collected from several papers.
Compare with care: the assays were run in different laboratories.
Target: Inhibitor of nuclear factor kappa-B kinase subunit beta (IKBKB, Homo sapiens, UniProt O14920)
Sequence (O14920 1-756, as in one of the studies): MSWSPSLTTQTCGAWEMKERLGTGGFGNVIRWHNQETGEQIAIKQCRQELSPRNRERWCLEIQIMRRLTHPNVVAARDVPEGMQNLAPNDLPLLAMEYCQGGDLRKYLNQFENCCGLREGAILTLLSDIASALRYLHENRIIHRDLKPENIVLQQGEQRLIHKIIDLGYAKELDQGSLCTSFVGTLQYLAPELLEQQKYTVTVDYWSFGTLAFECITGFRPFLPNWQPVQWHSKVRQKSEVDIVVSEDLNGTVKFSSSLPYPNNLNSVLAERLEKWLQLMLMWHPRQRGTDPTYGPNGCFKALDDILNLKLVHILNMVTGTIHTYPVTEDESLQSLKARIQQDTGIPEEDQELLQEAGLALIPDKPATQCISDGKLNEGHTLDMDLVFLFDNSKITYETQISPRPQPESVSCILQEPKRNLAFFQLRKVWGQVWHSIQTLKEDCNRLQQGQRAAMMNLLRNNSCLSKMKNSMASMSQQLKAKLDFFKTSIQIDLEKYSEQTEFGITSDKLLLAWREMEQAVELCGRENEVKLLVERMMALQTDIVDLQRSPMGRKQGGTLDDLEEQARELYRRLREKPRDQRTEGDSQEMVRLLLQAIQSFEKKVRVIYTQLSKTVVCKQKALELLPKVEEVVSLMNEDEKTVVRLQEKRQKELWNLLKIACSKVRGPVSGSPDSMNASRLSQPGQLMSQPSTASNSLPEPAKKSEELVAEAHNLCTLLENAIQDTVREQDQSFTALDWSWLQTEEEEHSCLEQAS

O=C(O)c1ccccc1/C=N/Nc1nc(-c2ccccc2Cl)cs1
inhibition (enzyme activity, inhibitor; 1 µM): -23.9%

CN(C)[C@H]1C[C@@]23CC[C@@]4(O2)C(=CC[C@]2(C)[C@@H](c5ccc6ccncc6c5)CC[C@H]24)C=C3[C@@H](O)[C@@H]1O
inhibition (ATP probe labelling, inhibitor, KiNativ profiling; 0.1 µM): -2.5%

CCOC(=O)[C@@H]1Cc2c(cc([N+](=O)[O-])cc2[N+](=O)[O-])[C@H](O)[C@]12C(=O)Nc1ccc(Br)cc12
remaining binding (binding, competition with immobilised ligand; 0.1 µM): 100%

C[C@H](NCc1ccc(-c2ccc(C(F)(F)F)cc2)cc1)C(N)=O
inhibition (cell-free assay, competition with immobilised ligand; 1 µM): 12%

O=C1NC(=O)c2c1c1cc(F)c[n+]3c1c1c2c2cc(O)ccc2[n]1[Ru-4]312([N]=C=S)[S+]3CC[S+]1CC[S+]2CC3 (stereo not drawn)
remaining activity (enzyme activity; 100 nM, human enzyme, with: 10 µM ATP; baseline: untreated): 83%

Nc1ccc(/C=C/C(=O)N2CCc3c(oc4c(-c5ccc(F)cc5)cc(-c5ccc(C(=O)N6CCC(F)(F)CC6)cn5)cc34)C2)cn1
remaining binding (binding, competition with immobilised ligand; 1 µM): 100%

CS(C)(=O)=Nc1ccc(-c2ccc(-c3nc4cc(O[C@@H]5CO[C@H]6[C@@H]5OC[C@H]6O)[nH]c4cc3F)cc2)cc1
inhibition (enzyme activity, inhibitor; 10 µM): -6%

CN(/N=C/c1ccccc1C(=O)O)c1nc(-c2ccccc2Cl)cs1
inhibition (enzyme activity, inhibitor; 1 µM): -18.7%

CC(C)[C@H]1NC(=O)C[C@H]2/C=C/CCSSC[C@@H](NC1=O)C(=O)N[C@H](Cc1cccc3ccccc13)C(=O)NCC(=O)O2
inhibition (enzyme activity, inhibitor; 10 µM): 1.3%

Some of these lines once more:
CN(C)[C@H]1C[C@@]23CC[C@@]4(O2)C(=CC[C@]2(C)[C@@H](c5ccc6ccncc6c5)CC[C@H]24)C=C3[C@@H](O)[C@@H]1O
inhibition (ATP probe labelling, inhibitor, KiNativ profiling; 0.1 µM): -2.5%
